Results pooled from the literature.
Each numbered part is a random draw from the data of one study; scales do not carry over between parts.
UniProt Q9Y2H1, sequence (whole entry, looked up): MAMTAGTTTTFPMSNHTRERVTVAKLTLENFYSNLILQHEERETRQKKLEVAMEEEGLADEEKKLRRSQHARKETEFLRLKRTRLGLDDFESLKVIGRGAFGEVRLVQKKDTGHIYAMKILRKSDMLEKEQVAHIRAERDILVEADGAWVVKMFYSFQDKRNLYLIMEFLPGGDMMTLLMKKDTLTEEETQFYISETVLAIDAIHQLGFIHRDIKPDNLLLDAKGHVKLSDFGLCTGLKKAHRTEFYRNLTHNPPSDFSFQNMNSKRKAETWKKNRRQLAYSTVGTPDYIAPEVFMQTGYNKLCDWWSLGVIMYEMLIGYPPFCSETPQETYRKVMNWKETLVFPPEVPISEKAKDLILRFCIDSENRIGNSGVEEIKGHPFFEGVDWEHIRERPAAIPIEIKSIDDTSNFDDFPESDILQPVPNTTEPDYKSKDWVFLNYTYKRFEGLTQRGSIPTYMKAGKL
UniProt P31751, sequence (whole entry, looked up): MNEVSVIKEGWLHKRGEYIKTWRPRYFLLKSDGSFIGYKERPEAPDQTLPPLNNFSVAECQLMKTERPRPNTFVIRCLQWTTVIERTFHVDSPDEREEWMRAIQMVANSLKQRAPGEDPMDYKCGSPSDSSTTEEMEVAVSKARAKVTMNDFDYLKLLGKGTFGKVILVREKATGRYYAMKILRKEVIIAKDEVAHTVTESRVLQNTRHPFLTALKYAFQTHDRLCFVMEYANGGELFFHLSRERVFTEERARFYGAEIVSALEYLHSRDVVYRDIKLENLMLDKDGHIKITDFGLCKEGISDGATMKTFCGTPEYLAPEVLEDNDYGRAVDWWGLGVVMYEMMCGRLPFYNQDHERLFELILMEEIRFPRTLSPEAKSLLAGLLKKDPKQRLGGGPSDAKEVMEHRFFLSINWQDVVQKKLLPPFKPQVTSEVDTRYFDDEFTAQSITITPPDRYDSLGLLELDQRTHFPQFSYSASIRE
UniProt Q8N568, sequence (whole entry, looked up): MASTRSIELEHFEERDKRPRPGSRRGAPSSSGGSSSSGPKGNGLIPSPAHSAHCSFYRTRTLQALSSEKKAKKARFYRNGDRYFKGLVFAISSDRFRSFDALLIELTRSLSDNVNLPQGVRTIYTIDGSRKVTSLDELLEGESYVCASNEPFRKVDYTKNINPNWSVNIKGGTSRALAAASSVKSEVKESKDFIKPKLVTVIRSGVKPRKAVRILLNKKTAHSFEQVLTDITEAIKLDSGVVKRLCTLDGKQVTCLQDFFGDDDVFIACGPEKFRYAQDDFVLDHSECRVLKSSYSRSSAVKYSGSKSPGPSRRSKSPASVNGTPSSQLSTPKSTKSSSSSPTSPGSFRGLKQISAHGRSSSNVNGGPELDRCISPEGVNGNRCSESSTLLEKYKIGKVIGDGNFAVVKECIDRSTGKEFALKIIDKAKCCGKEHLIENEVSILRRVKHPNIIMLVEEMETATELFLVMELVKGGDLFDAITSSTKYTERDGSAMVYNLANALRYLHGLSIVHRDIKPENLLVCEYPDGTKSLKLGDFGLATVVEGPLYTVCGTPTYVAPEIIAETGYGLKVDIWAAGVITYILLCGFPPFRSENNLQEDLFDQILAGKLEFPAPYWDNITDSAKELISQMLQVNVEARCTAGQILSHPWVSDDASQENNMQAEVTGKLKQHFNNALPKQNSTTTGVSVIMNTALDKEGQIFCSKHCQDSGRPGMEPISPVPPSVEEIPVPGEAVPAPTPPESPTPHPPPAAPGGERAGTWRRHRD
UniProt P54753, sequence (whole entry, looked up): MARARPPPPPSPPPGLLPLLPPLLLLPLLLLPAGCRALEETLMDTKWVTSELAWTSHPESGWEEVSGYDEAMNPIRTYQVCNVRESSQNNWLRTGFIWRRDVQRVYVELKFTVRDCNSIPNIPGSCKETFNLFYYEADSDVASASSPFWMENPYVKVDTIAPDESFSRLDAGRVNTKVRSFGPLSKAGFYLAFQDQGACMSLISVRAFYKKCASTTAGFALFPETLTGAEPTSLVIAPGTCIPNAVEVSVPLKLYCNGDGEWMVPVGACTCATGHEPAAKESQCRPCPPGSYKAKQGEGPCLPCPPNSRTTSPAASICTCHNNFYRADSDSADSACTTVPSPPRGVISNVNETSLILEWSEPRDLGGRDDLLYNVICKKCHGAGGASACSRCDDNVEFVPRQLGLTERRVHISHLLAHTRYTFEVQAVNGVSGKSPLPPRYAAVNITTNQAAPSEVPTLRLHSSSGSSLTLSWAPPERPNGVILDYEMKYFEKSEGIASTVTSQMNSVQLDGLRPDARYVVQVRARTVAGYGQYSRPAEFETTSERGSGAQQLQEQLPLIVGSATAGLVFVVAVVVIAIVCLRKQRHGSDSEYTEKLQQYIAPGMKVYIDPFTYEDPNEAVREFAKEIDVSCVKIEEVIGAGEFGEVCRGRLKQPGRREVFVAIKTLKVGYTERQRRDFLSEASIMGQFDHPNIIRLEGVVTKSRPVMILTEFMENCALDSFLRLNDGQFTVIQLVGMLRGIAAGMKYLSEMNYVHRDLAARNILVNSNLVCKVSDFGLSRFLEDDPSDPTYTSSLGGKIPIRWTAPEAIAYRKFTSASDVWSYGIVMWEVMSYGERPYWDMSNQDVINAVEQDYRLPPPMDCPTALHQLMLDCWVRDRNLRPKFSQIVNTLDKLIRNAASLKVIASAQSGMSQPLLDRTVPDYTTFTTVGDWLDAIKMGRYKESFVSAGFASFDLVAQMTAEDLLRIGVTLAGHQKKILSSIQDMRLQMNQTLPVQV
UniProt P28482, sequence (whole entry, looked up): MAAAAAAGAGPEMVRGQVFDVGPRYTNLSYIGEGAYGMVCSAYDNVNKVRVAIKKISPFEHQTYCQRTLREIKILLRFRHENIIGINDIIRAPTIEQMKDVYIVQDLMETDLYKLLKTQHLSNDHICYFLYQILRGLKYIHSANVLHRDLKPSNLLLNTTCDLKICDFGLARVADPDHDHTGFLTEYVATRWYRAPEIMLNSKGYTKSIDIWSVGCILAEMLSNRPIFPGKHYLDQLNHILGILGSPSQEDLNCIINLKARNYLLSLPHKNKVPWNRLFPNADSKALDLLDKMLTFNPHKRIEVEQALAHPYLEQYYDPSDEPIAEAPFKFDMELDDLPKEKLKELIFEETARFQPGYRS
UniProt Q02750, sequence (whole entry, looked up): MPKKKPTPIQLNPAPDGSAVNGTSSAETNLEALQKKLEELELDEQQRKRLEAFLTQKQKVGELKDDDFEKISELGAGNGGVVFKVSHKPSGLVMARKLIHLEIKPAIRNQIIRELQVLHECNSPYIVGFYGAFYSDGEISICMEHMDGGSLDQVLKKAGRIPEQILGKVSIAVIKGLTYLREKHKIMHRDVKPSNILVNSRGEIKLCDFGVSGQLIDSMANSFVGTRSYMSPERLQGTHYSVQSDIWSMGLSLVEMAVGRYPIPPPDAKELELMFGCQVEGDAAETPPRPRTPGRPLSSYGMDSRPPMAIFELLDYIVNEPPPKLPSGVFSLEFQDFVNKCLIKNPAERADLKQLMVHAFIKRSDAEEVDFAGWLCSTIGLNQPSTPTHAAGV
UniProt O60331, sequence (whole entry, looked up): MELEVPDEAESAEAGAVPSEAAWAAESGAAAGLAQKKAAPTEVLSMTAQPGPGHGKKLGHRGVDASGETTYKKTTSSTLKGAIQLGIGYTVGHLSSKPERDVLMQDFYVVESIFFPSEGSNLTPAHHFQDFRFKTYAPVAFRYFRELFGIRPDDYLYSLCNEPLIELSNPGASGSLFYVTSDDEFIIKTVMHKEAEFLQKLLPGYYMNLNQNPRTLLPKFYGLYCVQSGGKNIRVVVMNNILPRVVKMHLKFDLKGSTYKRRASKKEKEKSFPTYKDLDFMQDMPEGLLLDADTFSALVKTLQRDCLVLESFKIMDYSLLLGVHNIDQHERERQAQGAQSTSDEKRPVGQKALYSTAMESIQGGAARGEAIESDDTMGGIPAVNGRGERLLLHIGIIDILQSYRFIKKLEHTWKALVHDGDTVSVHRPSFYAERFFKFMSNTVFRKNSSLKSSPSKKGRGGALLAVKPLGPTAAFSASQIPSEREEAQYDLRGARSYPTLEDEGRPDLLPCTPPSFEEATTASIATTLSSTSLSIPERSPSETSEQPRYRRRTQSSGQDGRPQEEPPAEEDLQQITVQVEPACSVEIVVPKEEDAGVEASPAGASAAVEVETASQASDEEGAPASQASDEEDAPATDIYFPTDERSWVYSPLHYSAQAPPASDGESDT
UniProt P50750, sequence (whole entry, looked up): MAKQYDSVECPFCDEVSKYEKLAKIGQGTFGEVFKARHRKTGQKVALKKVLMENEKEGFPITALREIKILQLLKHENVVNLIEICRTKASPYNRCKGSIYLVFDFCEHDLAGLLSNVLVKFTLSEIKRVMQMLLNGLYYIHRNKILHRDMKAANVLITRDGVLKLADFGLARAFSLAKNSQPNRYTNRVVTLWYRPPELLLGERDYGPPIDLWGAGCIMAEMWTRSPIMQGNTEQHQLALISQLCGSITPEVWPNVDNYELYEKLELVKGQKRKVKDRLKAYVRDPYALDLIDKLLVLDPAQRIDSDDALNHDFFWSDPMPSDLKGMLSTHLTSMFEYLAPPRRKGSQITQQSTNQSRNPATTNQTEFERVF

Series 1
Organism: Sarcocystis neurona
Observed: parasite activity
Tested at: 10 µM
Time: 96 h
SMILES | activity class
CC(C)(C)C(O)/C=C/c1ccc2c(c1)OCO2 (stereo not drawn) | inactive
Clc1ccccc1C(c1ccccc1)(c1ccccc1)n1ccnc1 | inactive
CC1(C)O[C@@H]2[C@@H](CO[C@@]3(COS(N)(=O)=O)OC(C)(C)O[C@@H]23)O1 | inactive
CCOc1cc(N)c(Cl)cc1C(=O)NCC1CN(Cc2ccc(F)cc2)CCO1 (stereo not drawn) | inactive
CC(C(=O)O)c1cccc(C(=O)c2ccccc2)c1 (stereo not drawn) | inactive
CC(C(O)c1ccc(O)cc1)N1CCC(Cc2ccccc2)CC1 (stereo not drawn) | inactive
C=CC[C@@H]1/C=C(\C)C[C@H](C)C[C@H](OC)[C@H]2O[C@@](O)(C(=O)C(=O)N3CCCC[C@H]3C(=O)O[C@H](/C(C)=C/[C@@H]3CC[C@@H](O)[C@H](OC)C3)[C@H](C)[C@@H](O)CC1=O)[C@H](C)C[C@@H]2OC | inactive
CO[C@H]1/C=C/O[C@@]2(C)Oc3c(C)c(O)c4c(O)c(c(/C=N/N5CCN(C6CCCC6)CC5)c(O)c4c3C2=O)NC(=O)/C(C)=C\C=C\[C@H](C)[C@H](O)[C@@H](C)[C@@H](O)[C@@H](C)[C@H](OC(C)=O)[C@@H]1C | inactive
CN1CCC(=C2c3ccccc3C=Cc3ccccc32)CC1 | inactive
CC12CC3CC(C)(C1)CC(N)(C3)C2 | inactive

Series 2
Target: Beta-1 adrenergic receptor (ADRB1, Homo sapiens, UniProt P08588)
UniProt P08588, sequence (whole entry, looked up): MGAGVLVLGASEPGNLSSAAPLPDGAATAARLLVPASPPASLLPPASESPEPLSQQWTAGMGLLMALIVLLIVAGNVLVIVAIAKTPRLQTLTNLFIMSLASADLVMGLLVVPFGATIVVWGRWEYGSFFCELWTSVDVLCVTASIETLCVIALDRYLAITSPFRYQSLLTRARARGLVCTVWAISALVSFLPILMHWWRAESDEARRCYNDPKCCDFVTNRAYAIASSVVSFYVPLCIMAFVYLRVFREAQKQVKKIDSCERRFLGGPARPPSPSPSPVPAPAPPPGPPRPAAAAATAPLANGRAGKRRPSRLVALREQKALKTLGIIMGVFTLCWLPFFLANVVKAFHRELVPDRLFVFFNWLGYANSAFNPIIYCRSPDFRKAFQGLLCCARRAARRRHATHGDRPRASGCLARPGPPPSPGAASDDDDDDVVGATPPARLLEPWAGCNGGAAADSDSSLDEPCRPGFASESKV
Action: antagonist
Structure (SMILES) | IC50
Oc1cc2c(cc1O)C(c1ccccc1)CNCC2 (stereo not drawn) | ≥ 100 µM
COc1ccccc1CN[C@H]1[C@H](O)[C@@H](N2CCN(c3ccccc3OC)CC2)[C@@H]2OC[C@H]1O2 | ≥ 100 µM
COc1ccc2c(Cn3nnc(-c4ccc(Br)cc4)n3)cc(=O)oc2c1 | ≥ 100 µM
CCCC(=O)c1cc(F)ccc1OCC(O)CNC(C)(C)C (stereo not drawn) | ≥ 100 µM
Brc1ccc(-c2noc(-c3c[nH]nc3-c3ccccc3)n2)cc1 | ≥ 100 µM
c1cnc(OCC2CCCN(c3ccc4ccccc4n3)C2)nc1 (stereo not drawn) | ≥ 100 µM
CN(C)c1cccc(-c2nccc3c(=O)cc(N4CCOCC4)oc23)c1 | ≥ 100 µM
COc1ccc(-c2ccc(Cn3ccnc3)cn2)c2ccc(C)nc12 | ≥ 100 µM
CCOc1ccccc1C(=O)N1CCc2cc(OC)c(OC)cc2C1COc1ccc2c(C)cc(=O)oc2c1 (stereo not drawn) | ≥ 100 µM
CN(C)c1cccc(-c2nc(N3CCOCC3)cc3c2CN(Cc2cnn(C)c2)C3=O)c1 | ≥ 100 µM
CC(C)(C)NC[C@H](O)COc1ccccc1C1CCCC1 | ≥ 100 µM

Series 3
Structure (SMILES): O=C(O)[C@H]1[C@H](Cn2nnc3ccccc3c2=O)CC[C@@H]1C(=O)c1ccc(OCCC2CCOCC2)cc1
Technique: competition with immobilised ligand
Tested at: 1 µM
target | observed | remaining binding
PIP5K1C (Homo sapiens, UniProt O60331) | cell-free assay | 100%
STK38L (Homo sapiens, UniProt Q9Y2H1) | binding | 96%
EPHB3 (Homo sapiens, UniProt P54753) | cell-free assay | 89%
MAPK12 (Homo sapiens, UniProt P53778) | cell-free assay | 93%
DCLK2 (Homo sapiens, UniProt Q8N568) | cell-free assay | 79%
CLK2 (Homo sapiens, UniProt P49760) | cell-free assay | 100%
ERN1 (Homo sapiens, UniProt O75460) | cell-free assay | 82%
CDK15 (Homo sapiens, UniProt Q96Q40) | cell-free assay | 100%

Series 4
Structure (SMILES): O=C1Nc2ccccc2/C1=C\c1c(Cl)[nH]c2ccccc12
Observed: enzyme activity
Action: inhibitor
Tested at: 0.5 µM
Baseline: control
target | remaining activity [%]
RPS6KA4 (Homo sapiens, UniProt O75676) | 93.6
MARK2 (Homo sapiens, UniProt Q7KZI7) | 94.7
MAPK11 (Homo sapiens, UniProt Q15759) | 94.5
PRKG2 (Homo sapiens, UniProt Q13237) | 71.7
MAPK1 (Homo sapiens, UniProt P28482) | 96.4
AKT2 (Homo sapiens, UniProt P31751) | 96.8
PLK3 (Homo sapiens, UniProt Q9H4B4) | 101
DDR2 (Homo sapiens, UniProt Q16832) | 92.7
MAP2K1 (Homo sapiens, UniProt Q02750) | 84.8
CDC42BPB (Homo sapiens, UniProt Q9Y5S2) | 102
GRK4 (Homo sapiens, UniProt P32298) | 102
MINK1 (Homo sapiens, UniProt Q8N4C8) | 94.9
Cyclin-dependent kinase 9, with cyclin K (CDK9, Homo sapiens, UniProt P50750) | 98.3

Some of these lines once more (series 2):
Structure (SMILES) | IC50
CCCC(=O)c1cc(F)ccc1OCC(O)CNC(C)(C)C (stereo not drawn) | ≥ 100 µM
CC(C)(C)NC[C@H](O)COc1ccccc1C1CCCC1 | ≥ 100 µM
COc1ccccc1CN[C@H]1[C@H](O)[C@@H](N2CCN(c3ccccc3OC)CC2)[C@@H]2OC[C@H]1O2 | ≥ 100 µM
